Experimental data pooled from the literature.
Protocols differ between the studies behind these lines. ± gives the spread as reported.
DRD2: D(2) dopamine receptor (DRD2, Homo sapiens, UniProt P14416)
Chain of UniProt P14416 (whole entry, unmodified, looked up): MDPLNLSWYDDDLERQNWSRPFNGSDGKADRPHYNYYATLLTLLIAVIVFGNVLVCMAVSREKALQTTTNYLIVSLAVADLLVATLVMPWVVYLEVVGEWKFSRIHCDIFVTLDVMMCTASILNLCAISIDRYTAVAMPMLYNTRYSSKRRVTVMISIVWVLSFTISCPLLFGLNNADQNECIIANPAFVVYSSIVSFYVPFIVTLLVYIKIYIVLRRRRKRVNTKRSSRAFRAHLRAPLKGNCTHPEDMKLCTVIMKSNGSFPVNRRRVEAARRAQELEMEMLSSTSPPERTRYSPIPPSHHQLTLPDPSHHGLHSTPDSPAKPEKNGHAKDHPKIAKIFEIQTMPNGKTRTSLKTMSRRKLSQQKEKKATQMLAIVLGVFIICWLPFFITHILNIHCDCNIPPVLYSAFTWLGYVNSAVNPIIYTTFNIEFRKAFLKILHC

Oc1c(CN2CCN(c3ccccn3)CC2)cc(Cl)c2cccnc12 — EC50 (D(2) dopamine receptor (DRD2, Homo sapiens, UniProt P14416, H393A); cAMP, agonist, luciferase): 350 nM
COc1ccc2c(c1)c1c(n2CO)CN2CCc3cc(OCc4cccc(F)c4)c(OC)cc3C2C1 (stereo not shown) — IC50 (DRD2; calcium signal, antagonist): > 100000 nM
O[C@@H]1Cc2ccccc2[C@H]1NCc1cn2ccc(Br)cc2n1 — Ki (DRD2; ligand displacement, radioligand): > 10000 nM
COc1ccc2c(c1)c1c(n2CO)CN2CCc3cc(OC)c(OCc4ccccc4)cc3C2C1 (stereo not shown) — IC50 (DRD2; calcium signal, antagonist): > 100000 nM
CC1(C)C2=C3C=C4C5=[N+](CCC4OC3CCN2c2ccc(S(=O)(=O)[O-])cc21)c1ccc(C(=O)NCCCCOc2ccc(C(=O)CCCN3CCC(O)(c4ccc(Cl)cc4)CC3)cc2)cc1C5(C)C (stereo not shown) — Ki (DRD2; binding): 30 ± 5.4 nM
Cc1ccc(C(=O)NC[C@@H](C)N2CCCC2)cc1I — Ki (DRD2; ligand displacement, radioligand): > 10000 nM
CCn1c2ccccc2c2cc(CN[C@H]3CC[C@H](NC(=O)c4cc5ccccc5[nH]4)CC3)ccc21 — Ki (DRD2; cell-free assay): > 10000 nM
O=C1CCc2ccc(OCCCCN3CCN(c4cccc5c4ccn5Cc4ccccc4)CC3)cc2N1 — Ki (DRD2; cell-free assay): 22 nM
Cn1c(C(=O)N[C@H]2CC[C@H](CCN3CCc4ccc(C#N)cc4C3)CC2)cc2ccccc21 — IC50 (D(2) dopamine receptor, dimer with WT protomer (DRD2, Homo sapiens, UniProt P14416, E95A); cell-based): 1550 nM
CN(C)C1(CNC(=O)c2cnn(-c3ccc(Cl)cc3)c2)CCSC1 (stereo not shown) — Ki (DRD2; ligand displacement, radioligand): > 10000 nM
CCn1c2ccccc2c2cc(CNCCCn3ccnc3)ccc21 — Ki (DRD2; cell-free assay): > 10000 nM
CC(C)n1ccc2c(N3CCN(CCCCOc4ccc5c(c4)NC(=O)CC5)CC3)cccc21 — Kb (DRD2; cAMP, antagonist): 11.3 nM
CCS[C@H]1CC[C@@H](N(C)CC(=O)Nc2ccc(C)c(C)c2)C1 — Ki (DRD2; ligand displacement, radioligand): > 10000 nM

Excerpt of the above:
COc1ccc2c(c1)c1c(n2CO)CN2CCc3cc(OCc4cccc(F)c4)c(OC)cc3C2C1 (stereo not shown) — IC50 (DRD2; calcium signal, antagonist): > 100000 nM
